Measurements of several laboratories.
A part holds a random share of what one study measured. Substitutions count along the parent as printed.

Sample 1 — technique: RNA Bind-n-Seq; molecule type: RNA; matrix: in vitro; tested at: 200 nM; setting: whole 134-nt RNA, ends assumed; together with: 150 mM LiCl; reference: input library; direction: higher = stronger binding; all molecules: 7-deaza-guanosine replaces G
Target: Fragile X messenger ribonucleoprotein 1, C-terminal low-complexity region (Fmr1, Mus musculus, UniProt P35922)
Shared flanks, not repeated: GGGAGUUCUACAGUCCGACGAUC … UGGAAUUCUCGGGUGUCAAGG
Strand | log2 enrichment
ACCAUGCAGGUGGGCAUAUUUGGGAAGUGGGGCAAGGGGGGGAUAGGGAGGGGGGUAACACUUUGGGAACAGGUGGUCCCAGGUCGUUUC | 1.44
AGUCCUGUGCUACACAUCGUAUGUACCGAAUCGGUUUGGUUUUUUUGGUUUUUUUGGAAAGUAUUAUGUUACGCCGUUCGGAUCUGCACU | -1.6
CCUCAAGUCCUGUGCUACACAUCGUAUGUACCGAAUCGGUGGAAAGGAAAGGAAAGUAUUAUGUUACGCCGUUCGGAUCUGCACUUCCAG | 0.536
UGGCCCUGGUGGCAUGCGGGGAGGAAGAGGUGGCCUCAUGGAUCGUGGUGGUCCCGGUGGAAUGUUCAGAGGUGGCCGUGGGGGAGACAG | -0.303
UGUGCUACACAUCGUAUGUACCGAAUCGGGGCCCCCCCGGGGCCCCCCCGGGGCCCCCCCGGAAAGUAUUAUGUUACGCCGUUCGGAUCU | -1.63
CCUGUGCUACACAUCGUAUGUACCGAAUCAAACCCCCCCAAACCCCCCCAAAUUUUUAAAAAAGUAUUAUGUUACGCCGUUCGGAUCUGC | 2.27
AAGUCCUGUGCUACACAUCGUAUGUACCGAAUCGGGUUUGGGGUUUGGGGUUUGGGGAAAGUAUUAUGUUACGCCGUUCGGAUCUGCACU | -1.51
UGGGAGGUGGAUUUUGUUUAUUUUUUUAGCUCAUUUCCAGGGGUGGGAAUUUUUUUUUAAUAUGUGUCAUGAACAAAGUUGUUUUUGAAA | -0.218

Sample 2 — technique: Spec-seq; molecule type: double-stranded DNA, one strand shown; matrix: in vitro; tested at: not given; setting: whole probe, mean of replicates; reference: not given; direction: lower = stronger binding; shared flanks, not repeated: GAGTCGTCTCGTCAGCAC … CCGTAGAGCACTCAGGTC
Target: POU, POU domain (Salpingoeca helianthica)
Construct (chain): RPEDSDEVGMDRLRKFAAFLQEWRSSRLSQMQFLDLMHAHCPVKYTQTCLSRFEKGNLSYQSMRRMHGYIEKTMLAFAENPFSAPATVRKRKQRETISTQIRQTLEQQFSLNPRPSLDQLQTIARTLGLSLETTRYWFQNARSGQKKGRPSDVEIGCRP
Strand | relative binding energy
ATGATTAT | -0.257 ln ratio
CATATAAT | 0.282 ln ratio
CACTTAAT | 0.147 ln ratio
GAGATAAT | 0.207 ln ratio
ATGGGGAT | 1.42 ln ratio
ATGCTGGA | 1.43 ln ratio
ATGCGCGC | 1.39 ln ratio
ATGCGCAT | 1.24 ln ratio

Single results of other studies
P1: PafA, mature enzyme, eGFP fusion (Elizabethkingia meningoseptica, UniProt Q9KJX5); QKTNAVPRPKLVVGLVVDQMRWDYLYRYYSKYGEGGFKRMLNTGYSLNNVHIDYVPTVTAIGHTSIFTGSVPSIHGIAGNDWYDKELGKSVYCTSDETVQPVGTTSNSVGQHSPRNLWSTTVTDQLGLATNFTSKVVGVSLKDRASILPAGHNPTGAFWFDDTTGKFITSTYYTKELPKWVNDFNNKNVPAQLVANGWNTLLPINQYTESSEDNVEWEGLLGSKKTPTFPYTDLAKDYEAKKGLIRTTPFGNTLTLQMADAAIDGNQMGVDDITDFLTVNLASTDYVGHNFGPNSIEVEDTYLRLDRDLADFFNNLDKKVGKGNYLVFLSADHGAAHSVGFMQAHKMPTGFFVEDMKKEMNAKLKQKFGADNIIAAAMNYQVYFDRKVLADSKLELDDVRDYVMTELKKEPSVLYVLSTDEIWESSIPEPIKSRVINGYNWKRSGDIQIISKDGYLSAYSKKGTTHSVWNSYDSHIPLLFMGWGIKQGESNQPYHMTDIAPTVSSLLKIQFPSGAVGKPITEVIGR
Molecule | target | test | test system | conditions | scale | measurement | value
P1 S474V | tungstate, free oxyanion | microfluidic competitive inhibition | in vitro, cell-free expressed | not given, derived from inhibition constants, unchanged parent 2230 nM | lower = stronger binding | oxyanion analog dissociation constant | 1.16 µM
PhoQ, residues 284 288 289 292 302 303 TSTLRA | PhoP, residues 12 14 15 18 19 VHSCL (Escherichia coli, UniProt P23836) | Sort-seq, item: YFP reporter | E. coli | PhoQ-PhoP variant library, together with: 10 µM Mg2+ | reference: high Mg2+ state, higher = stronger signaling | fold induction | 1.2
